Results collected from several papers.
Every numbered part comes from another study and shows a few of its results, in no order. Changes are numbered by the printed parent chain.

Set 1
Target: Prothrombin, mature alpha-thrombin (F2, Homo sapiens, UniProt P00734)
Method: aptamer microarray, sandwich
Form: DNA with 2'F-ANA
Medium: in vitro
Concentration: 200 nM
Setting: whole 15-mer aptamer, many near background
Together with: Cy3 exosite-II aptamer, 400 nM
Direction: higher = stronger binding
Strand: GGTTGGTGTGGTTGG
| Modification | mean fluorescence intensity [a.u.] |
| --- | --- |
| 2'F-ANA at 1 3 4 6 7 9 11 15 | 178 |
| 2'F-ANA at 3 4 6 8 9 10 11 13 15 | 176 |
| 2'F-ANA at 1 3 5 6 7 8 10 11 12 13 15 | 52.5 |
| 2'F-ANA at 6 7 9 12 13 14 15 | 170 |
| 2'F-ANA at 3 4 5 6 12 14 | 52.3 |
| 2'F-ANA at 2 4 6 7 9 12 13 14 | 90.3 |
| 2'F-ANA at 1 2 3 5 6 11 12 15 | 89.4 |
| 2'F-ANA at 1 3 6 8 9 11 12 13 14 15 | 122 |
| 2'F-ANA at 1 6 9 10 11 13 | 63.6 |
| 2'F-ANA at 1 3 5 7 10 14 | 47.4 |
| 2'F-ANA at 1 2 5 6 10 13 14 15 | 67.2 |
| 2'F-ANA at 1 6 9 12 13 15 | 272 |
| 2'F-ANA at 2 5 6 7 8 9 11 12 14 15 | 51.2 |
| 2'F-ANA at 1 2 4 6 15 | 124 |
| 2'F-ANA at 1 3 4 9 11 13 14 15 | 58.2 |
| 2'F-ANA at 1 2 7 11 12 | 325 |
| 2'F-ANA at 4 6 7 10 11 12 13 14 15 | 62.2 |
| 2'F-ANA at 2 5 7 8 9 10 11 14 15 | 47.7 |
| 2'F-ANA at 5 7 9 10 11 14 | 44.7 |
| 2'F-ANA at 2 3 8 10 11 13 14 15 | 234 |
| 2'F-ANA at 3 7 8 10 12 14 15 | 470 |
| 2'F-ANA at 2 3 5 10 12 13 | 55 |

Set 2
Target: Histone acetyltransferase KAT6A, winged helix 1, GST fusion (KAT6A, Homo sapiens, UniProt Q92794, residues 1-85)
Method: protein binding microarray
Form: double-stranded DNA, one strand shown
Medium: in vitro
Concentration: not given
Setting: 8-mer, flanks averaged, mean of 2 arrays, mostly near background
Baseline: not given
Direction: higher = stronger binding
Construct (chain): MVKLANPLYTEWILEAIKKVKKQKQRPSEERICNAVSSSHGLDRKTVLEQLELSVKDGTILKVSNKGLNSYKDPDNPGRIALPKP
| Strand | E-score |
| --- | --- |
| GAAAAGAA | -0.12 |
| ACTTAAAT | -0.24 |
| GCAGCTTA | -0.0188 |
| ATTGTAAG | 0.00432 |
| CGGGACCA | 0.123 |
| AAATAGTA | -0.0397 |
| AATCGATC | -0.232 |
| CCTGTGGA | -0.195 |
| CCCCTCAC | -0.0481 |
| ACCTCGTC | -0.0308 |
| CCTTGGAC | -0.0232 |
| GGCACCAA | -0.0191 |
| GTTTACCA | -0.126 |
| AACTAGGA | -0.179 |
| TCACTTAA | -0.147 |
| CCGTAATC | 0.26 |
| AAGATTAA | -0.136 |
| AGACTCCA | -0.255 |
| AAAAAGTC | -0.0758 |
| CTCATCAC | -0.221 |
| AGTTGAGA | -0.241 |
| CCAGAAGG | -0.161 |
| ACTAGCCG | 0.314 |
| ATACCCTG | -0.115 |
| ATCCAACC | -0.138 |

Set 3
Target: UBE2Q2 UBC core domain (UniProt Q8WVN8)
Chain of UniProt Q8WVN8 (whole entry, looked up): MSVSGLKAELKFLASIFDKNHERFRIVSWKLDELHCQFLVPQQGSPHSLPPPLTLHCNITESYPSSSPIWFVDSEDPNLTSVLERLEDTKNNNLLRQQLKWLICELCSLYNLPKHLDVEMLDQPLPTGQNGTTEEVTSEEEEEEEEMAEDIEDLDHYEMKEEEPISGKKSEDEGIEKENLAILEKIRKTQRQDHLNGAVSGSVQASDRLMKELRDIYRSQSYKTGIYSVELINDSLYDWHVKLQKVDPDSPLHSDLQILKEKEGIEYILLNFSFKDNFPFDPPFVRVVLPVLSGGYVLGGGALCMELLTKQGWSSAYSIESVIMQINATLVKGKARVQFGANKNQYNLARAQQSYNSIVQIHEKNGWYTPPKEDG
Method: yeast two-hybrid
Medium: yeast
Setting: mostly zero background
Baseline: not given
Direction: higher = stronger interaction
B1: TRAF5 RING domain (UniProt O00463); chain FVERLEERYKCAFCHSVLHNPHQTGCGHRFCQHCILSLRELNTVPICPVDKEVIKSQEVFK
B2: DTX4 RING domain (UniProt Q9Y2E6); chain QKVRHPPDEDCTICMERLTAPSGYKGPQPTVKPDLVGKLSRCGHVYHIYCLVAMYNNGNKDGSLQCPTCKTIYGVKTGTQ
B3: TRIM40 RING domain (UniProt Q6P9F5); chain LQKDNQEEGVCPICQESLKEAVSTNCGHLFCRVCLTQHVEKASASGVFCCPLCRKPCSEEVLG
B4: RC3H1 RING domain (UniProt Q5TC82); chain QAPQWTDFLSCPICTQTFDETIRKPISLGCGHTVCKMCLNKLHRKACPFDQTTINTDIELL
B5: TRIM5 RING domain (UniProt Q9C035); chain LREVKLSPEGQKVDHCARHGEKLLLFCQEDGKVICWLCERSQEHRGHHTFLTEEVAREYQVKL
| Molecule | lacZ reporter activity |
| --- | --- |
| B1 (TRAF5 RING domain) | 0 |
| B2 (DTX4 RING domain) | 0 |
| B3 (TRIM40 RING domain) | 0 |
| QVDKAVFHMQSVKCLKCQEQKRAVLPCQHAALCELCAEGSECPICQPGRAHTLQS (UNK RING domain (UniProt Q9C0B0)) | 0 |
| VEPSEENSKDCVVCQNGTVNWVLLPCRHTCLCDGCVKYFQQCPMCRQFVQESFALC (CGRRF1 RING domain (UniProt Q99675)) | 0 |
| B4 (RC3H1 RING domain) | 0 |
| MPIRALCTICSDFFDHSRDVAAIHCGHTFHLQCLIQWFETAPSRTCPQCRIQVGKRTIIN (TRAIP RING domain (UniProt Q9BWF2)) | 0 |
| B5 (TRIM5 RING domain) | 0 |

Set 4
Target: CCNE2, cyclin fold, Cln2 fusion (human)
Method: yeast growth competition, sequencing
Medium: yeast
Setting: strong parent motif
Baseline: not given
Direction: higher = stronger binding
Starting sequence: RBL1 docking peptide (human); GSAKRRLFGEDPP
| Variant | normalised enrichment score |
| --- | --- |
| GSAYRRLFGEDPP [K4Y] | 0.984 |
| GSAKRRLFGEDPN [P13N] | 4.61 |
| ASAKRRLFGEDPP [G1A] | 4.68 |
| GSAKRRLPGEDPP [F8P] | 0.479 |
| GSAKRRLFGMDPP [E10M] | 3.01 |
| RSAKRRLFGEDPP [G1R] | 4.73 |
| GSAKRRHFGEDPP [L7H] | 0.236 |
| GSAKRRLFMEDPP [G9M] | 4.88 |
| GSAKRRLFGEDFP [P12F] | 3.7 |
| GSAKHRLFGEDPP [R5H] | 0.78 |
| GSAKRELFGEDPP [R6E] | 0.852 |
| GSAKRRLDGEDPP [F8D] | 0.34 |
| GSAKRRNFGEDPP [L7N] | 0.594 |
| GSAFRRLFGEDPP [K4F] | 1.39 |
| GSAKRRLFLEDPP [G9L] | 4.85 |
| GSAPRRLFGEDPP [K4P] | -0.335 |
| GSAKRALFGEDPP [R6A] | 1.38 |
| GLAKRRLFGEDPP [S2L] | 2.7 |

A few entries again (set 1):
| Modification | mean fluorescence intensity [a.u.] |
| --- | --- |
| 2'F-ANA at 2 5 6 7 8 9 11 12 14 15 | 51.2 |
| 2'F-ANA at 1 2 4 6 15 | 124 |
| 2'F-ANA at 1 3 4 9 11 13 14 15 | 58.2 |
| 2'F-ANA at 1 2 7 11 12 | 325 |
| 2'F-ANA at 4 6 7 10 11 12 13 14 15 | 62.2 |
| 2'F-ANA at 2 5 7 8 9 10 11 14 15 | 47.7 |
| 2'F-ANA at 5 7 9 10 11 14 | 44.7 |
| 2'F-ANA at 2 3 8 10 11 13 14 15 | 234 |
| 2'F-ANA at 3 7 8 10 12 14 15 | 470 |
